Assay results pooled from the literature.
Several values in a cell are separate wells, animals, samples, runs or records. ± gives the spread as reported.
Nuclear receptor subfamily 2 group C member 2 ligand-binding domain: Nuclear receptor subfamily 2 group C member 2, ligand-binding domain (Homo sapiens, UniProt P49116)
UniProt P49116, sequence (whole entry, looked up): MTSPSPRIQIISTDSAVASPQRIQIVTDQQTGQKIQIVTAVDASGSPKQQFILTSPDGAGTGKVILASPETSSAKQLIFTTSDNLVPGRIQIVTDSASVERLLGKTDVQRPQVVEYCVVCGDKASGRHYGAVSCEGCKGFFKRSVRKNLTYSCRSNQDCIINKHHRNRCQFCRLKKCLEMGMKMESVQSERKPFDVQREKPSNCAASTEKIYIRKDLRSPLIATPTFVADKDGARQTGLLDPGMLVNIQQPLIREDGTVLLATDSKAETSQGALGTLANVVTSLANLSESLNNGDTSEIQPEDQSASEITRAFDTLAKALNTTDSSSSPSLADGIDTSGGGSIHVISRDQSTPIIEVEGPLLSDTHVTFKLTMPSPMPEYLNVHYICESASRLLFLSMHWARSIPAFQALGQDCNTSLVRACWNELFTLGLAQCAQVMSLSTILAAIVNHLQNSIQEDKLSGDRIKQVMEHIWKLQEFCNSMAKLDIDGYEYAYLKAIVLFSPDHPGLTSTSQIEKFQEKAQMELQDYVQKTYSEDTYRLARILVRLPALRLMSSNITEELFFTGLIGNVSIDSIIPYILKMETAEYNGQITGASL
T1: ssRNA, hairpin with 1x1 G/G internal loops (Homo sapiens); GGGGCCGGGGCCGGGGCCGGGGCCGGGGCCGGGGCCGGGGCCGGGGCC
UniProt P27361, sequence (whole entry, looked up): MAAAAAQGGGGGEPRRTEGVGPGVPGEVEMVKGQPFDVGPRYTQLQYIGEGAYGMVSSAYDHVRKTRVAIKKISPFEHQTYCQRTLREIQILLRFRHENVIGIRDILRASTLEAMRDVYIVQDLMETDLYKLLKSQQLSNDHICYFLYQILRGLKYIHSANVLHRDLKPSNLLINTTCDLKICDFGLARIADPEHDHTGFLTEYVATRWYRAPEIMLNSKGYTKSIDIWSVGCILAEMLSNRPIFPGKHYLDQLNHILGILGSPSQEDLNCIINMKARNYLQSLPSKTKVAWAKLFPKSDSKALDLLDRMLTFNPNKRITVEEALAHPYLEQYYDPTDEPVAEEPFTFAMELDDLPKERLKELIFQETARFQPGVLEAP
UniProt P11388, sequence (whole entry, looked up): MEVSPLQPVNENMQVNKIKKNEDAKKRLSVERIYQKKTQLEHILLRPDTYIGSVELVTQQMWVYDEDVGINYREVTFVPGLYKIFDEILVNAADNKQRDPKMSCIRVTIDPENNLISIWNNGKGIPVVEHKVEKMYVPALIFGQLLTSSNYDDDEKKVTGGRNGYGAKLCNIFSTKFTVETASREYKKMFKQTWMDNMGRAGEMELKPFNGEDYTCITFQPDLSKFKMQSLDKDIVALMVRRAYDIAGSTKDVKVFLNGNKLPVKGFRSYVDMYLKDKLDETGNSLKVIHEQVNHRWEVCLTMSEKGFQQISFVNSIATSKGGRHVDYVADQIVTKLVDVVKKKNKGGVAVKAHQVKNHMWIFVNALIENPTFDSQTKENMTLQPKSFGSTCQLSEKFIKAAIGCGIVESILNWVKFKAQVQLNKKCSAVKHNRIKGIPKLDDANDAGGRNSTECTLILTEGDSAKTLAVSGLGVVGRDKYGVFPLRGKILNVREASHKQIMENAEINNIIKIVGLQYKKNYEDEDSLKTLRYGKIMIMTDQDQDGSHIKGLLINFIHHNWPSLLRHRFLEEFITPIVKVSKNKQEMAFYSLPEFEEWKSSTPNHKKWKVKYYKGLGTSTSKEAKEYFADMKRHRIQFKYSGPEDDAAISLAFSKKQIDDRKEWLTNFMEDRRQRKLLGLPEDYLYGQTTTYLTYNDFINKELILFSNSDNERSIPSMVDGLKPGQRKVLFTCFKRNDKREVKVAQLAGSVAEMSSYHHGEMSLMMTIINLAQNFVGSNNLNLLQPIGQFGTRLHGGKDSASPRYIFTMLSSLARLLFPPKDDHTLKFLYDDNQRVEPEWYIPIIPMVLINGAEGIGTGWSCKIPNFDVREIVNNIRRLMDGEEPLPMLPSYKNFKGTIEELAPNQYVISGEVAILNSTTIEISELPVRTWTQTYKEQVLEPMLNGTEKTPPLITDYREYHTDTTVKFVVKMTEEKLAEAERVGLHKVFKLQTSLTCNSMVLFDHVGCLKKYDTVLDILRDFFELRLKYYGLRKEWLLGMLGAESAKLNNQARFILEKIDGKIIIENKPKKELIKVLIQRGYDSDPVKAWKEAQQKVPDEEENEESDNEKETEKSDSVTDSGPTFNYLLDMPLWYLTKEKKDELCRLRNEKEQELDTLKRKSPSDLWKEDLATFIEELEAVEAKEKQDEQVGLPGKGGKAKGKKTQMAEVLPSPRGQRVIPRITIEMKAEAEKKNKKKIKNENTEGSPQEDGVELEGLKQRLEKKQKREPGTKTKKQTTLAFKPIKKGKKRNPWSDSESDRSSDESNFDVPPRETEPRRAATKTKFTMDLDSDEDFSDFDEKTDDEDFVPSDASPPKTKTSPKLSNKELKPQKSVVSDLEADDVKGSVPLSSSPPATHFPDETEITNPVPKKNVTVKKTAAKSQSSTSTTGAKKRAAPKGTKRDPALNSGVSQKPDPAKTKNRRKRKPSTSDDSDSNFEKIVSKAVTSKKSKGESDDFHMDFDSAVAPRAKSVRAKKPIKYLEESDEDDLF
UniProt Q9UF33, sequence (whole entry, looked up): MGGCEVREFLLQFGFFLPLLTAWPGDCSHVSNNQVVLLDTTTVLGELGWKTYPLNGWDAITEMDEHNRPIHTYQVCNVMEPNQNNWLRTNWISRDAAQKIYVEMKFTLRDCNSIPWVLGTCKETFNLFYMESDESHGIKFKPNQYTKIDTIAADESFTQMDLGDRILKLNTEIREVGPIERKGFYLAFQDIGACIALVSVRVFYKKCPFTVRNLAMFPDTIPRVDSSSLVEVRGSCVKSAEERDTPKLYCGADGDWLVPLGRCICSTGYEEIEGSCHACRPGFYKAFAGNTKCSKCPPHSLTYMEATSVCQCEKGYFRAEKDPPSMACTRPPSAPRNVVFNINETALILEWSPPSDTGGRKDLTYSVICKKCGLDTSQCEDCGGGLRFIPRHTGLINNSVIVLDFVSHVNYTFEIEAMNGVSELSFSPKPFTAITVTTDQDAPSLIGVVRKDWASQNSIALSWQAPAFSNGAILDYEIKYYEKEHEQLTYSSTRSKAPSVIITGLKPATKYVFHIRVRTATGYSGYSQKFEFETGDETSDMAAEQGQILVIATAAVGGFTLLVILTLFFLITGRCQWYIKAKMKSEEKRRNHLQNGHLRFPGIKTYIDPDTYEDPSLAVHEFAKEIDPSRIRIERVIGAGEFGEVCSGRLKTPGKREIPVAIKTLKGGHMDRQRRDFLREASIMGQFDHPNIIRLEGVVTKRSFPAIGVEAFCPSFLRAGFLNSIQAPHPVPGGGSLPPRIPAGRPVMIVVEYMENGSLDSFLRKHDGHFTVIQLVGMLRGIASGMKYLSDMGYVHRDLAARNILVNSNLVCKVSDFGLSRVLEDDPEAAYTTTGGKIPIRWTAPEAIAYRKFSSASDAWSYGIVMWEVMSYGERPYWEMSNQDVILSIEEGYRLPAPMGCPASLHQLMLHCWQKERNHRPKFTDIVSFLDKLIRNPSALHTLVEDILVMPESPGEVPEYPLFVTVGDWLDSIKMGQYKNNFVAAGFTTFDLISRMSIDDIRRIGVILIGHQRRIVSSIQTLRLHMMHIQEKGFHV
UniProt Q9BYT3, sequence (whole entry, looked up): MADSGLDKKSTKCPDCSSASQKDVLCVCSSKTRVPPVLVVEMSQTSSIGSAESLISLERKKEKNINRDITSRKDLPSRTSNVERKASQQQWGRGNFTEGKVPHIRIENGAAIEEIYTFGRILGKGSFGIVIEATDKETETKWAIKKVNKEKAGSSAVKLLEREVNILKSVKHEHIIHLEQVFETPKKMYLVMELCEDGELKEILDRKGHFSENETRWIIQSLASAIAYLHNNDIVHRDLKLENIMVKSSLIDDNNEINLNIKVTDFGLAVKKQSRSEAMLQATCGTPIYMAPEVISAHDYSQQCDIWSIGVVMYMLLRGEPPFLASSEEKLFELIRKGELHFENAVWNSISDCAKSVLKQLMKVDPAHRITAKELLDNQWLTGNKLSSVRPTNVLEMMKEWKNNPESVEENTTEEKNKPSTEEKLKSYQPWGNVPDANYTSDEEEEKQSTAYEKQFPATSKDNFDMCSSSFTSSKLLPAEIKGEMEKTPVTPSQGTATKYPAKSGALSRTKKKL
UniProt Q5AP53, sequence (whole entry, looked up): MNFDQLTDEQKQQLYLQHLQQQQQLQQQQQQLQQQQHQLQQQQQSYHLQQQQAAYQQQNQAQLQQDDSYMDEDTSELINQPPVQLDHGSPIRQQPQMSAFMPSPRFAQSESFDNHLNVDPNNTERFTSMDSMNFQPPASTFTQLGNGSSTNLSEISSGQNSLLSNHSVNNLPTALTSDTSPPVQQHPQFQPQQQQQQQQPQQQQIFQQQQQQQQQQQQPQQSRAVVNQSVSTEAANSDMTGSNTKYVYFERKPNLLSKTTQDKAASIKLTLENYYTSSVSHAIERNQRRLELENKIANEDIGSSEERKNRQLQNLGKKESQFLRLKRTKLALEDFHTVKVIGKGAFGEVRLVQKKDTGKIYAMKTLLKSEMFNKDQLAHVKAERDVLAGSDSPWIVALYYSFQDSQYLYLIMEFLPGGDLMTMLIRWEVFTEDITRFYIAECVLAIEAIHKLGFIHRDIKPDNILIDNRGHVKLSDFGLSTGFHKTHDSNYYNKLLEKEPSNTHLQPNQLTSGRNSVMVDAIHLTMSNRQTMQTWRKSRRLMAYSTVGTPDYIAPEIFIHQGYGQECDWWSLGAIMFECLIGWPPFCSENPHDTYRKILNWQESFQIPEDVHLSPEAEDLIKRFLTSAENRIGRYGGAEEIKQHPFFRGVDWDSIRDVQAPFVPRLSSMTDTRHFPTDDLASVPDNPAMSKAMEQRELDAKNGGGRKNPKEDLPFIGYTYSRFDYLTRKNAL

Compound	target	assay	system	setting	how to read	endpoint	result
COC1=C(OC)C(=O)C(CCCCCCCCCCO)=C(C)C1=O	Nuclear receptor subfamily 2 group C member 2 ligand-binding domain	SPR imaging	–	600 nM	–	koff	2.73e-05 s⁻¹
Cc1n[nH]c2ccc(-c3cc(OC[C@@H](N)Cc4ccccc4)cnc3-c3ccoc3)cc12	Serine/threonine-protein kinase CBK1 (CBK1, Candida albicans, UniProt Q5AP53)	kinase binding, competitor, MIB/MS competition, measured: CBK1	Candida albicans cell lysate	1 µM	relative to: DMSO	log2 fold change	-0.0808
NC(=O)CN1CCCN(C(=O)CN2CCCN(Cc3cccc4cnccc34)CC2)CC1	T1, ssRNA, hairpin with 1x1 G/G internal loops (Homo sapiens)	competitor, competitive Chem-CLIP	–	100 µM	–	binding	binds
O=C1OC(c2ccccc2)=N/C1=C\c1cccc(O)c1	Alpha-glucosidase MAL12 (MAL12, Saccharomyces cerevisiae S288c, UniProt P53341)	inhibitor, Lineweaver-Burk	–	3200 ppm, added: pNPG substrate	–	Vmax	0.036 mM/min
CCOCc1nc(O)c(-c2nnc(Cc3ccc(Cl)cn3)o2)c(O)c1-c1c(OC)cccc1OC	Apelin receptor (APLNR, Homo sapiens, UniProt P35414)	Gα12/P115 activation, agonist, BRET biosensor	HEK293	–	–	Emax	92 ± 10%
Nc1nc2c(ncn2[C@@H]2O[C@@H]3COP(=O)(O)O[C@H]3[C@H]2O)c(=O)[nH]1	Cone cGMP-gated channel (Morone saxatilis, UniProt Q3I0N1+Q3I0N2)	channel current, agonist, suction electrode	cone outer segments	added: 0 µM Ca2+	–	Hill coefficient	2.01 ± 0.3
C=CC(=O)N1CCC(COCC(=O)N2CCN(c3nc(-c4cnc(N)nc4C(F)F)nc(N4CCOC[C@@H]4C)n3)CC2)CC1	Ephrin type-A receptor 6 (EPHA6, Homo sapiens, UniProt Q9UF33)	KINOMEscan	–	1 µM	–	remaining binding	100%
Nc1[nH]nc2nnc(-c3c(-c4ccccc4)nn4ccccc34)cc12	Mitogen-activated protein kinase 3 (MAPK3, Homo sapiens, UniProt P27361)	ADP-Glo	–	80 nM, added: MBP substrate	–	kinase activity	90.3% and 114% and 62%
CC(=C/C(=O)O)/C=C/C=C(\C)C1C=C2C(C)(C)CCCC2(C)O1 (stereo not shown)	Rhodopsin (RHO, Homo sapiens, UniProt P08100, P23H)	immunostaining, measured: opsin	COS-7 transfected	50.00 µM, unit not given	relative to: surface over total stained cells	plasma membrane localization	0.98
C[C@@H]1CC[C@]2(C(=O)O)CC[C@]3(C)C(=CC[C@@H]4[C@@]5(C)CC[C@H](O)[C@@](C)(CO)[C@@H]5CC[C@]43C)[C@@H]2[C@]1(C)O	UGT enzymes, human	glucuronidation, substrate	human liver microsomes	range 0.2 to 50 µM	–	Km	11.8 ± 0.715 µM
[H]/N=C(/N)NS(=O)(=O)c1ccc(N)cc1	Nuclear receptor subfamily 2 group C member 2 ligand-binding domain	SPR imaging	–	600 nM	–	koff	2.34e-05 s⁻¹
CCOc1cc(-c2nncn2C)ccc1Nc1ncc2cc(C)nc(NCC(C)(C)C)c2n1	Serine/threonine-protein kinase 33 (STK33, Homo sapiens, UniProt Q9BYT3)	binding, LanthaScreen binding	–	1 µM	–	displacement	27%
O=c1nc(SCc2cc(F)cc(C(F)(F)F)c2)nc(SCc2ccc3nc(Cl)ccc3c2)[nH]1	DNA topoisomerase 2-alpha (TOP2A, Homo sapiens, UniProt P11388)	ATPase activity	–	125 µM, added: ATP 0.075 mM	–	ATP hydrolysis rate	0.259 µM/min and 0.55 µM/min
O=C(O)[C@@H]1CCCN1c1ncnc2[nH]cnc12 (racemic)	E3 SUMO-protein ligase PIAS1 (PIAS1, Homo sapiens, UniProt O75925)	binding, affinity selection mass spectrometry	–	–	relative to: other proteins in batch	fold enrichment	0.798
C[C@H](N)C(=O)N[C@@H](CCCNC(=N)N)C(=O)N[C@H](C(=O)N[C@@H](CCCCN)C(=O)N[C@@H](CCC(N)=O)C(=O)N[C@H](C(=O)N[C@@H](C)C(=O)N[C@@H](CCCNC(=N)N)C(=O)N[C@@H](CCCCN)C(=O)N[C@@H](CO)C(=O)O)[C@@H](C)O)[C@@H](C)O	Transcriptional regulator ATRX (ATRX, Homo sapiens, UniProt P46100, F284Y/K251R)	isothermal titration calorimetry	–	pH 7.5, 25.0 °C	–	binding free energy	-7.43 kcal/mol
CCCC[C@H]1CN(c2cccc(Cl)c2)C(=O)CN1Cc1cncn1Cc1ccc(C#N)cc1	Cryptococcus neoformans farnesyltransferase	enzyme activity, inhibitor, fluorescence	–	added: 1 µM FPP, 0.5 µM dansylated peptide	–	IC50	100 ± 10 nM

For quick reference, copied from above:
Compound	target	assay	system	setting	how to read	endpoint	result
CC(=C/C(=O)O)/C=C/C=C(\C)C1C=C2C(C)(C)CCCC2(C)O1 (stereo not shown)	Rhodopsin (RHO, Homo sapiens, UniProt P08100, P23H)	immunostaining, measured: opsin	COS-7 transfected	50.00 µM, unit not given	relative to: surface over total stained cells	plasma membrane localization	0.98
C[C@@H]1CC[C@]2(C(=O)O)CC[C@]3(C)C(=CC[C@@H]4[C@@]5(C)CC[C@H](O)[C@@](C)(CO)[C@@H]5CC[C@]43C)[C@@H]2[C@]1(C)O	UGT enzymes, human	glucuronidation, substrate	human liver microsomes	range 0.2 to 50 µM	–	Km	11.8 ± 0.715 µM
[H]/N=C(/N)NS(=O)(=O)c1ccc(N)cc1	Nuclear receptor subfamily 2 group C member 2 ligand-binding domain	SPR imaging	–	600 nM	–	koff	2.34e-05 s⁻¹
